Experimental data from different studies.
Protocols differ between the studies behind these lines.

For `Cc1ccc(NC(=O)c2ccc(CN3CCN(C)CC3)cc2)cc1Nc1nccc(-c2cncc(-c3oncc3C)c2)n1`, the AUC(0-tau) was 87200 ng·h/mL (healthy volunteers, plasma; oral, 200 mg once daily, day 1, 7-day dosing, mean).
`Nc1ccn([C@@H]2O[C@H](CO)[C@@H](O)C2(F)F)c(=O)n1` has an AUC(0-tau) of 5950 ng·h/mL (human, plasma; intravenous, 750 mg/m2, cycle 1 day 1, with: lonafarnib 150 mg twice daily).
`C[C@@H](N)c1cc(Cl)ccc1Cn1c(=S)[nH]c(=O)c2[nH]ccc21` gave an AUC(0-tau) of 0.217 µM·h (healthy Japanese volunteers, plasma; oral, 5 mg once daily, day 1, geometric mean).
The AUC(0-tau) of `Nc1cc(F)ccc1NC(=O)c1ccc(CNC(=O)/C=C/c2cccnc2)cc1` is reported as 4870 ng·h/mL (Japanese patients, plasma; oral, 30 mg twice weekly, cycle 1 day 25).
For `C=C(C)[C@@H]1CC[C@]2(NCCN3CCS(=O)(=O)CC3)CC[C@]3(C)[C@H](CC[C@@H]4[C@@]5(C)CC=C(C6=CC[C@@](CF)(C(=O)O)CC6)C(C)(C)[C@@H]5CC[C@]43C)[C@@H]12`, the AUC(0-tau) was 17500 ng·h/mL (human; oral, 100 mg once daily, day 14, multiple ascending dose).
For `O=c1[nH]c(=O)c(Cc2cccc(C(F)(F)F)c2)c([C@H]2CC[C@H](c3ccccc3)CC2)[nH]1`, the AUC(0-tau) was 5700 ng·h/mL (human, plasma; oral, 450 mg once daily, day 14, geometric mean).
`COCCCCn1c(C(=O)N(CC(C)C)[C@@H]2CNC[C@H](C(=O)N3CCOCC3)C2)nc2ccccc21` gave an AUC(0-tau) of 4940 ng·h/mL (human, elderly, plasma; oral, 80 mg once daily, day 1, mean).
The AUC(0-tau) of `C[C@]12C=CC(=O)C=C1CC[C@@H]1[C@@H]2[C@@H](O)C[C@@]2(C)[C@H]1C[C@H]1O[C@@H](C3CCCCC3)O[C@]12C(=O)CO` is reported as 0.601 ng·h/mL (children with asthma, serum; inhaled, 160 µg ciclesonide, day 7, geometric LS mean, per-protocol, spacer).
